Assay results from different studies.
Parts stem from different laboratories: compare values within a part only. Substitutions count along the parent as printed.

Sample 1 — technique: RNA Bind-n-Seq; form: RNA; medium: in vitro; concentration: 1 µM; setting: whole 134-nt RNA, ends assumed; with: 150 mM KCl; reference: input library; direction: higher = stronger binding
Target: Ras GTPase-activating protein-binding protein 1, C-terminal RGG region (G3BP1, Homo sapiens, UniProt Q13283)
Chain of UniProt Q13283 (whole entry, looked up): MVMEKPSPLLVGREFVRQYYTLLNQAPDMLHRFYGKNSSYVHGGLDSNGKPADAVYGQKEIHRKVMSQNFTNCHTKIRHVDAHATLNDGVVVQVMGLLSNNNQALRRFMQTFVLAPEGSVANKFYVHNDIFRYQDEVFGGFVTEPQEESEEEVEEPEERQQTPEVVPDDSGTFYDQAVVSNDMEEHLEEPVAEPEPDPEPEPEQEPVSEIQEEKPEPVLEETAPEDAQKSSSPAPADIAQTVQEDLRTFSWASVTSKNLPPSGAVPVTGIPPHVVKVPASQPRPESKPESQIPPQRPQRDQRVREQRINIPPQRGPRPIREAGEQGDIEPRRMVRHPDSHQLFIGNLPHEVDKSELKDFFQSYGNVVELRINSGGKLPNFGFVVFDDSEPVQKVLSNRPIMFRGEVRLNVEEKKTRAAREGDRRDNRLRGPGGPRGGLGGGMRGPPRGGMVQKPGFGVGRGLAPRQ
Constant ends, left off below: GGGAGUUCUACAGUCCGACGAUC … UGGAAUUCUCGGGUGUCAAGG
Oligonucleotide | log2 enrichment
UGGGAGGUGGAUUUUGUUUAUUUUUUUAGCUCAUUUCCAGGGGUGGGAAUUUUUUUUUAAUAUGGGUCAUGAAUAAAGUUGUUUUUGAAA | 3.44
CUGUGCUACACAUCGUAUGUACCGAAUCGGGUUUUUUUGGGGUUUUUUUGGGUUUUUUUGGAAAGUAUUAUGUUACGCCGUUCGGAUCUG | -0.978
AGUCCUGUGCUACACAUCGUAUGUACCGAAUCGGGAAAAAGGGAAAAAGGAAAAAGGGAAAGUAUUAUGUUACGCCGUUCGGAUCUGCAC | -1.93
UGGGAGGUGGAUUUUGUUUAUUUUCUUAGCUCAUUUCCAGGGGUGGGAAUUUUUUUUUAAUAUGUGUCAUGAAUAAAGUUGUUUUUGAAA | 3.4
UUCCUUUCCGUUGUGUGUUUUAAAGGUGUGUGCCCUCUUCCUGAUUCUGGAGAAAAAUGCCGGUCCGGAAGCAAGGUGAGAGUUUAUUCC | 0.0571
CAAGUCCUGUGCUACACAUCGUAUGUACCGAAUCGGAAAAAAAGGAAAAAGGUGGAAAGUAUUAUGUUACGCCGUUCGGAUCUGCACUUC | -1.87
UCUAACUAAUUUUUCUUUGUUUUUUAACAGGAGAGGAGAUACUUACCCUUAAGUCAAGCCAGAAAAAGUGGUUUCCAAAUGGAUUGGCUG | -1.82
AAGUCCUGUGCUACACAUCGUAUGUACCGAAUCGGAAAGGAAAAAAAGGUUUUUGGAAAGUAUUAUGUUACGCCGUUCGGAUCUGCACUU | -2.2

Sample 2 — technique: RNA Bind-n-Seq; form: RNA; medium: in vitro; concentration: 365 nM; reference: no-protein control; direction: higher = stronger binding
Target: RNA binding protein fox-1 homolog 2, RRM domain, GST-SBP tag (RBFOX2, Homo sapiens, UniProt O43251-10, residues 100-194)
Setting: natural RNA segment, single round, ends assumed
Residues (chain): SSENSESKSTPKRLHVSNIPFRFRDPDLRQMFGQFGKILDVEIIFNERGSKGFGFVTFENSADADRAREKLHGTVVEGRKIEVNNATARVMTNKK
Oligonucleotide | RBNS enrichment (R)
GGGAGUUCUACAGUCCGACGAUCAAGUGGGGCAGGUUUGGUGGCUUCUGCCUGUAAUCACUGCAUUCAGAGGGGGCCAAGGCCUGUUUCAAAAACAACAACCAAGACAAGCAAAACCAGGUGUUGCUUUGCUAUGGAAUUCUCGGGUGCCAA | 0.339
GGGAGUUCUACAGUCCGACGAUCUAUGGUGUCUGCAUCUCAGCAGAUCUGGUCUGAGGGAGCGAUUCCUGUGUGGCGCCGUCCAUCUGGCCACUGCAGUCCAACCUCCACAAGAGAGAAGAACUAAAGAAGUUUGGAAUUCUCGGGUGCCAA | 0.18
GGGAGUUCUACAGUCCGACGAUCCCUGAUUGAGUUCGCCUCACACCAGCAUCUUCCCUUAUUCUGUCUGCCUAAGCACAUAACUUUCAAGUUUGUACUAUGAUCCAUGCACUCAUUAAUACCUUGCUCUGCAGUGGAAUUCUCGGGUGCCAA | 0.333
GGGAGUUCUACAGUCCGACGAUCGUAUCUCCCAAUGCUUUAGUAAAACGUAUUUAGGAGAAAUGUUGAAAAUGUACAUGAAGCUCCUUUCUGAUAUAGAAACCAUUUCUGGAGUAUUUACACUGGUUUGAUGUUGGAAUUCUCGGGUGCCAA | 1.01

Sample 3 — technique: protein binding microarray; form: double-stranded DNA, one strand shown; medium: in vitro; concentration: not given; reference: not given; direction: higher = stronger binding
Target: Histone acetyltransferase KAT6A, winged helix 1, GST fusion (KAT6A, Homo sapiens, UniProt Q92794, residues 1-85)
Setting: 8-mer, flanks averaged, mean of 2 arrays, mostly near background
Target sequence (chain): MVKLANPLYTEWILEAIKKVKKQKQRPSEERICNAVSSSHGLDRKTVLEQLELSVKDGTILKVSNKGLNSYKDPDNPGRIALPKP
Oligonucleotide | E-score
ACCATCAC | -0.0683
ATTCCTTA | -0.0471
ACCCTATG | -0.157
CAAATGGG | -0.257
CCGGGAGA | 0.225
AAGATAAA | -0.0593
CTCGACAG | -0.241
AATTGTAC | -0.0758
CGCGAATC | 0.28
ATGTGCGG | 0.267
ATATCAGC | 0.0207
ATGTCCCC | -0.0176
CTCCGACC | 0.137

Sample 4 — target: CCNA2, cyclin fold, Cln2 fusion (human); technique: yeast growth competition, sequencing; medium: yeast; setting: weak parent motif; reference: not given; direction: higher = stronger binding
Starting sequence: MASTL docking peptide (human); PMIAKNLMCELDE
Substitution | normalised enrichment score
E10G | 0.0024
C9W | -0.341
N6Q | -0.0344
N6G | -0.237
N6H | 0.0148
N6D | -0.144
C9F | 0.382
M2D | -0.229
L7N | -0.164
E10C | 0.0949
E10T | -0.393
D12Q | 0.188
